Experimental data of several laboratories.
Numbers after ± are the reported error.

Compound	assay	system	conditions	half-life [h]
O=[N][Fe]1([N]=O)[S](CCO)[Fe]([N]=O)([N]=O)[S]1CCO	degradation	simulated gastric fluid	pH 1.2, 37 °C	0.4 ± 0.1
C=CC(=O)Nc1cccc(Cn2ncc3cnc(Nc4cnn(CCOC)c4)nc32)c1	–	human whole blood	5 µM	3.2
CC(=O)N[C@H]1CSSC[C@@H](C(N)=O)NC(=O)[C@H](C(C)C)NC(=O)[C@@H]2CCCN2C(=O)[C@@H]2CCCN2C(=O)[C@H]([C@@H](C)O)NC(=O)[C@H](CC(=O)O)NC1=O	–	plasma	–	5.7
[N-]=[N+]=NC(CCCCNC(=O)C1=C[C@H](O)[C@@H](NC(=O)C2=C[C@H](O)[C@@H](NC(=O)C3=C[C@H](O)[C@@H](NC(=O)C4=C[C@H](O)[C@@H](NC(=O)C5=C[C@H](O)[C@@H](NC(=O)C6=C[C@H](O)[C@@H](N)[C@H]([C@H](O)[C@H](O)CO)O6)[C@H]([C@H](O)[C@H](O)CO)O5)[C@H]([C@H](O)[C@H](O)CO)O4)[C@H]([C@H](O)[C@H](O)CO)O3)[C@H]([C@H](O)[C@H](O)CO)O2)[C@H]([C@H](O)[C@H](O)CO)O1)C(N)=O (stereo partly shown)	–	human serum	100 µM, 37 °C	11.7
[2H]C1([2H])CC[C@@H](C[C@@H](C#N)NC(=O)[C@@H]2[C@@H]3[C@H](CN2C(=O)[C@@H](NC(=O)C(F)F)C(C)(C)C)C3(C)C)C(=O)N1	–	mouse liver microsomes	microsomes 0.5 mg/mL	0.362
CC[C@H](C)[C@H](NC(=O)CNC(=O)CNC(=O)c1ccc2c(c1)C(=O)OC21c2ccc(O)cc2Oc2cc(O)ccc21)C(=O)N[C@@H](Cc1ccc(O)cc1)C(=O)N(C)[C@@H](C)C(=O)N[C@@H](C)C(=O)N1CCC[C@H]1C(=O)N(C)[C@@H](Cc1ccccc1)C(=O)N[C@@H](CCCCN)C(=O)N[C@@H](CCCCN)C(=O)N[C@@H](CCCCN)C(=O)N[C@@H](C)C(N)=O	CE-LIF	Baf/BCR-ABL cytosolic lysate	1 µM, pH 7.4, 37 °C	0.0267
CC(=O)N[C@H](CC(=O)O)C(=O)N[C@H](Cc1c[nH]c2ccccc12)C(=O)N[C@H](Cc1ccccc1)C(=O)N[C@H](CCCCN)C(=O)N[C@H](C)C(=O)N[C@H](Cc1ccccc1)C(=O)N[C@H](Cc1ccc(O)cc1)C(=O)N[C@H](CC(=O)O)C(=O)N[C@H](CCCCN)C(=O)N[C@@H](C(=O)N[C@H](C)C(=O)N[C@H](CCC(=O)O)C(=O)N[C@H](CCCCN)C(=O)N[C@H](Cc1ccccc1)C(=O)N[C@H](CCCCN)C(=O)N[C@H](CCC(=O)O)C(=O)N[C@H](C)C(=O)N[C@H](Cc1ccccc1)C(N)=O)C(C)C	–	statin-treated high-risk CHD patients, plasma	oral, 300 mg daily, day 13, mean, detected subjects	1.18
COc1cc(C)c(Cc2ccc(O)cc2)cc1[C@@H]1S[C@H](CO)[C@@H](O)[C@H](O)[C@H]1O	–	Japanese T2DM patients, plasma	0.5 mg luseogliflozin, day 1, once daily	24.7 ± 8.12
CCN(c1nc(N[C@H](CC(N)=O)C(=O)NC)nc(N2CCN(c3ccccc3C#N)CC2)n1)C1CCCCC1	–	human plasma	–	2.1 ± 0.3
Nc1nc2c(ncn2COCCOC(=O)[C@@H](N)CS)c(=O)[nH]1	–	DPBS	pH 6.0, 34 °C, chemical hydrolysis	6.7 ± 0.6
Cc1ccccc1OCC(N)c1ccccc1 (stereo not shown)	chemical stability, HPLC	–	pH 3, 37 °C	> 360
CCC(=O)N[C@@H](C)C(=O)OCC(=O)N[C@@H](C)C(=O)O	–	water	pH 2, 50 °C	175
CC(C)(C)c1nc(-c2ccc(NC(=O)c3cccs3)cc2Cl)no1	–	buffer	5 µM, pH 10.0, 37 °C	0.572 ± 0.122
CCC(CC)[C@H](NC(C)=O)[C@@H]1[C@H](O)[C@@H](C(=O)N[C@H](C(=O)O)[C@@H](C)CC)C[C@H]1NC(=N)N	–	phosphate buffer	pH 6.8, 37 °C, chemical stability	33.1 ± 0.5
O=C(Cc1cccc(I)c1)N[C@H]1CCOC1=O	–	TRIS buffer, 0.5% DMSO	50 µM, pH 8, 37 °C	2 to 3.5
CC(=O)N[C@@H](Cc1cnc[nH]1)C(=O)N[C@H](Cc1ccccc1)C(=O)N[C@@H](CCCNC(=N)N)C(=O)N[C@@H](Cc1c[nH]c2ccccc12)C(=O)NCCCOCCOCCOCCCNC(=O)COCC(N)=O	LC-MS/MS	mouse serum	10 µM, 37 °C	12.5
